Results gathered from unrelated publications.
Numbered parts are unrelated; each lists some results of a single study. Changes are numbered by the printed parent chain.

Series 1 — target: CCNA2, cyclin fold, Cln2 fusion (human); technique: yeast growth competition, sequencing; matrix: yeast; notes: strong parent motif; relative to: not given; direction: higher = stronger binding; parent: viral docking peptide; KGVKRKLFAEDSS
`F8C` — result for “normalised enrichment score”: 0.506.
Under “normalised enrichment score”, `V3C` is recorded as 6.01.
`F8K` — result for “normalised enrichment score”: 1.07.
`K6Y`: “normalised enrichment score” 1.95.
For `K4F`, “normalised enrichment score” read 4.39.
Under “normalised enrichment score”, `V3F` is recorded as 5.97.
For `A9Y`, “normalised enrichment score” read 6.44.
`L7A`: “normalised enrichment score” 0.407.
For `L7G`, “normalised enrichment score” read 0.646.
For `S12W`, “normalised enrichment score” read 6.26.
`L7P` — result for “normalised enrichment score”: 0.223.
Under “normalised enrichment score”, `R5W` is recorded as 0.856.
For `K4M`, “normalised enrichment score” read 4.48.
For `G2D`, “normalised enrichment score” read 6.27.
`L7R` — result for “normalised enrichment score”: 0.446.
`A9C`: “normalised enrichment score” 6.13.
For `V3S`, “normalised enrichment score” read 4.34.
`F8P` — result for “normalised enrichment score”: 0.293.
For `R5K`, “normalised enrichment score” read 5.54.
`L7H`: “normalised enrichment score” 0.204.
For `L7W`, “normalised enrichment score” read 0.0874.
For `F8W`, “normalised enrichment score” read 4.32.
For `F8Y`, “normalised enrichment score” read 3.35.
`E10G`: “normalised enrichment score” 5.74.
`K6Q`: “normalised enrichment score” 6.65.

Series 2 — technique: RNA Bind-n-Seq; molecule type: RNA; matrix: in vitro; tested at: 365 nM; relative to: no-protein control; direction: higher = stronger binding
Target: RNA binding protein fox-1 homolog 2, RRM domain, GST-SBP tag (RBFOX2, Homo sapiens, UniProt O43251-10, residues 100-194)
Notes: natural RNA segment, single round, ends assumed
Shared flanks, not repeated: GGGAGUUCUACAGUCCGACGAUC … UGGAAUUCUCGGGUGCCAA
Residues (chain): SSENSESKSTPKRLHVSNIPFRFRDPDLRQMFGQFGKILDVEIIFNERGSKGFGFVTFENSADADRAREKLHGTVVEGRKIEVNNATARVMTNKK
`CUAGAUUUUCCAGCUGACUUUGGUAUAAUAUAUAUUUAUCAGGAACUUCUCUCAGCAGAGAGUACCCAUUCUUCGAGUUCAAAGCACAAUUUUAAACAUGUAAAAUGGAU`: “RBNS enrichment (R)” 0.279.
Under “RBNS enrichment (R)”, `CUCUGCAGUUCAUCUCAUUUCAAAUGUUUAUGGAAGAAGCACUUCAUUGAAAGUAGUGCUGUAAAUAUUCUGCCAUAGGAAUACUGUCUACAUGCUUUCUCAUUCAAGAA` is recorded as 0.33.
For `UAGUCUCCGUUUACUUUCUCUUCAUUGUUGAUAAGAGAAUGCCAAGCUGCGCGUUGUUCAGGCAGUUUACCCCUACUAGAGAAGAAAGGAAGAAACGCUAGAAGAAAACA`, “RBNS enrichment (R)” read 7.76.
For `CUGCCCCUUUCUGUCCCAUCCUUCCCAAGAAGAGAGAACUUUUUCGAUAAACUAACUACUGUAGAAGAAGUGAACACUUACCUGGAGGCUCACCUUGCAGAACCAGUGAC`, “RBNS enrichment (R)” read 0.329.
For `CAUUCACAGAGUAGCUGUGAGUUCUUGGUAAUGUGAAAAAGGCCUUGUUUUUCAGAAAUUCCUGGGUUUCCUGUUAAAAAAUCUUAAAGCCCAACCUUAGGAAUAUAGUG`, “RBNS enrichment (R)” read 0.828.
`UCUUAUUGCUUAUUUGGUCGUAAUGAAAAUAAUUUGUAAAAUGUCCUUUAAAAGUUUAAUGAUACUUCUGAUGUUUCGGAACAGUCAUUUCACCUACUAUUUCUGAAUAU`: “RBNS enrichment (R)” 0.378.
`GGGUCUCUUAGACCUUACCUCUCAACUCCCUCAAGAGUACCAGUCUCUGAAGUUAUAAUGCUUUGGUCUCUACAUUAGGGGCAAGAUCCAGUCUGAGAGAAGUCUCCUUU` — result for “RBNS enrichment (R)”: 0.361.
`GGCCUCAUCUGGGACUGUUGGUUUAGUAAGCCUGUGGUCAACAAGUCACACCUACAUGACUGACCCCCCACCCCCAGUUAAAAGUCUAGCCCAACAGUAUAGCUGGGUGA` — result for “RBNS enrichment (R)”: 0.273.

Series 3 — technique: RNA Bind-n-Seq; molecule type: RNA; matrix: in vitro; tested at: 200 nM; notes: whole 134-nt RNA, ends assumed; added: 150 mM LiCl; relative to: input library; direction: higher = stronger binding; library: 7-deaza-guanosine replaces G
Target: Ras GTPase-activating protein-binding protein 1, full length (G3BP1, Homo sapiens, UniProt Q13283)
Chain of UniProt Q13283 (whole entry, looked up): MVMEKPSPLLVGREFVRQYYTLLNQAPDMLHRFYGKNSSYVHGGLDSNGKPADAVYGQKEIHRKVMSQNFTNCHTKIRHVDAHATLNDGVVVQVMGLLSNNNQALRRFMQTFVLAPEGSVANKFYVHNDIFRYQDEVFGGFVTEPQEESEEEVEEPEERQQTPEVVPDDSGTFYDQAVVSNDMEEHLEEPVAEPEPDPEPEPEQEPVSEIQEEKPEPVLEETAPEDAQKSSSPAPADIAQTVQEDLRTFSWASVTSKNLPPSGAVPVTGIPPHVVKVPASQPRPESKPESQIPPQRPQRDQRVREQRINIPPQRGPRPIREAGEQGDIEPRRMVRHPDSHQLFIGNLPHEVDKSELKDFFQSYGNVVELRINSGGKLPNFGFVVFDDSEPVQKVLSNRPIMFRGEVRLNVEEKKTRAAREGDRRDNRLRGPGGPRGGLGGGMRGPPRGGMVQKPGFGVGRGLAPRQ
Shared flanks, not repeated: GGGAGUUCUACAGUCCGACGAUC … UGGAAUUCUCGGGUGUCAAGG
`GUCCUGUGCUACACAUCGUAUGUACCGAAUCGGUUUUUGGGUUUUUGGGGUUUUUGGGAAAGUAUUAUGUUACGCCGUUCGGAUCUGCAC` has a log2 enrichment of -0.0416.
`CUGUGCUACACAUCGUAUGUACCGAAUCGGAAAAAAAGGGAAAAAAAGGGGAAAAAAAGGGAAAGUAUUAUGUUACGCCGUUCGGAUCUG` has a log2 enrichment of -0.272.
The log2 enrichment of `CCUGUGCUACACAUCGUAUGUACCGAAUCGGGGUUUUUUGGUUUUUUGGGGUUUUUUGGGGAAAGUAUUAUGUUACGCCGUUCGGAUCUG` is reported as -0.0815.
`UGGCCCUGGUGGCAUGCGGGGAGGAAGCGGUGGCCUCAUGGAUCGUGGUGGUCCCGGUGGAAUGUUCAGAGGUGGCCGUGGUGGAGACAG` gave a log2 enrichment of 0.296.
`UCAAGUCCUGUGCUACACAUCGUAUGUACCGAAUCGGGGAAGGAAGGGGAAGGGAAAGUAUUAUGUUACGCCGUUCGGAUCUGCACUUCC` has a log2 enrichment of -0.22.
With `UCCUGUGCUACACAUCGUAUGUACCGAAUCGGAAAAAAAGGUUUUUUUGGUUUUUUUGGAAAGUAUUAUGUUACGCCGUUCGGAUCUGCA` the log2 enrichment was -2.16.
With `CUGUGCUACACAUCGUAUGUACCGAAUCGGGGAAAAAAAGGGAAAAAAAGGGAAAAAAAGGAAAGUAUUAUGUUACGCCGUUCGGAUCUG` the log2 enrichment was -0.13.
The log2 enrichment of `UGGCCCUGGUGGCCUGCGGGGAGGAAGAGGUGGCCUCAUGGAUCGUGGUGGUCCCGGUGGAAUGUUCAGAGGUGGCCGUGGUGGAGACAG` is reported as 0.868.

Series 4 — technique: protein-binding microarray; molecule type: double-stranded DNA, one strand shown; matrix: in vitro; tested at: not given; direction: higher = stronger binding
Target: Protein max, full length (MAX, Homo sapiens, UniProt P61244-2, residues 1-151)
Notes: k-mer, scored over probes, only values ≥0.25
The E-score of `ACACGCCA` is reported as 0.314.
`CATGTAAG` has an E-score of 0.255.
For `CATGGAGG`, the E-score was 0.305.
`CATGCCTA` gave an E-score of 0.352.
With `TGCGCACA` the E-score was 0.346.
With `AGAACATG` the E-score was 0.291.
`CGTGTGAC` has an E-score of 0.354.
The E-score of `ACGTTGAC` is reported as 0.294.

Mixed results — NUP58: NUP58 (Homo sapiens, UniProt Q9BVL2)
OGT: UDP-N-acetylglucosamine--peptide N-acetylglucosaminyltransferase 110 kDa subunit (OGT, Homo sapiens, UniProt O15294)
Chain of UniProt O15294 (whole entry, looked up): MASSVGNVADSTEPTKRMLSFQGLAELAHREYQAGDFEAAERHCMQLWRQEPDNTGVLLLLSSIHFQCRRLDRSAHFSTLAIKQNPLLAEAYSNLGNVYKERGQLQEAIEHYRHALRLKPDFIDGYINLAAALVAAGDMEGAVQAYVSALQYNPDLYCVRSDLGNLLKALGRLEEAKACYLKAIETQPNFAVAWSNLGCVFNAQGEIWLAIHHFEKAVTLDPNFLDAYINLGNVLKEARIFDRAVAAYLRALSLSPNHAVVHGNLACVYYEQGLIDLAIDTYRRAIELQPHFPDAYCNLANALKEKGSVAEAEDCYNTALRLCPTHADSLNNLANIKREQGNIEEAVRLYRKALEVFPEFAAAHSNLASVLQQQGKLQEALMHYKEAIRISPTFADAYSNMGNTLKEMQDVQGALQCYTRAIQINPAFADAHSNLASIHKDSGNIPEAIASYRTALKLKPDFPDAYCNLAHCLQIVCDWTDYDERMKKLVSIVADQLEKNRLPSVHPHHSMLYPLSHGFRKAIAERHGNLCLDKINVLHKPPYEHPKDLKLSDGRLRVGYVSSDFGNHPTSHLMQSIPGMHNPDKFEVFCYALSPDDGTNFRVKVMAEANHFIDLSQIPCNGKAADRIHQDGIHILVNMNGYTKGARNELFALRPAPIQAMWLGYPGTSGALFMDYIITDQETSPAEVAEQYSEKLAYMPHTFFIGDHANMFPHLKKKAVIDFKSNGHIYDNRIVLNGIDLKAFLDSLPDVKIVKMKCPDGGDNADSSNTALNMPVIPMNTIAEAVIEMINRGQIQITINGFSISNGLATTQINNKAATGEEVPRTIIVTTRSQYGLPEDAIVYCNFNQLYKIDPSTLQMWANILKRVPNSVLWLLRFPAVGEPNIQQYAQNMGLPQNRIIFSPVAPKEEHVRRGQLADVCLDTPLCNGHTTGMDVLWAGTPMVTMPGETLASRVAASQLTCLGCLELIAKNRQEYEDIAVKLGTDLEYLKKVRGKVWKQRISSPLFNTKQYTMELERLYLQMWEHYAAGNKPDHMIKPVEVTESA
P1: PafA, mature enzyme, eGFP fusion (Elizabethkingia meningoseptica, UniProt Q9KJX5); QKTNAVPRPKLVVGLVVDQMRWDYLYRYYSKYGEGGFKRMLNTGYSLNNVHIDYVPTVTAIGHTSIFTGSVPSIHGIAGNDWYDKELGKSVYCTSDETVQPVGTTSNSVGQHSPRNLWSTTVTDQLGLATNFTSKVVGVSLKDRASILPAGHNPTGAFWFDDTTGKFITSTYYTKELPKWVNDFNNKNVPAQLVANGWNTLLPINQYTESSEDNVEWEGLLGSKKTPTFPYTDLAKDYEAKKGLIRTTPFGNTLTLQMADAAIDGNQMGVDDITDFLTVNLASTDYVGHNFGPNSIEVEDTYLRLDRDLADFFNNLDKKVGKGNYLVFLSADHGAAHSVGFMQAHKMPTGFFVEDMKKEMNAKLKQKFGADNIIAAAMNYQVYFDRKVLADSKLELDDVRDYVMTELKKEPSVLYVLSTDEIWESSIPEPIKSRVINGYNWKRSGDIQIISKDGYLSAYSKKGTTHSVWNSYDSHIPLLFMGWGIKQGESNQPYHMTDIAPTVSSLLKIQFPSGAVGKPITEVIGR
For `NUP98 (Homo sapiens, UniProt P52948)`, cross-linked residues read “K1749 to K1096” (NUP160 (Homo sapiens, UniProt Q12769); cross-linking MS; cell fractions; added: DSSO).
`IYLPIYQIQAQWPFK` — result for “minimum log2 enrichment ratio”: 3.83 (OGT; binding, phage display NGS; peptide; panning round 2; relative to: input library).
For `CDH2 (Homo sapiens, UniProt P19022)`, cross-linked residues read “K896 to S48” (CTNNA1 (Homo sapiens, UniProt P35221); cross-linking MS; cell fractions; added: DSSO).
`NQYHHGNTGNFHTHP` — result for “minimum log2 enrichment ratio”: 2.93 (OGT; binding, phage display NGS; peptide; panning round 2; relative to: input library).
`NUP54 (Homo sapiens, UniProt Q7Z3B4)`: interaction screen “cross-linked” (NUP58; cross-linking MS; hits only).
Under “oxyanion analog dissociation constant”, `P1 G251A` is recorded as 1790 nM (tungstate, free oxyanion; microfluidic competitive inhibition; in vitro, cell-free expressed; not given, derived from inhibition constants, unchanged parent 2230 nM; lower = stronger binding).
For `TMEM209 (Homo sapiens, UniProt Q96SK2)`, interaction screen read “cross-linked” (NUP58; cross-linking MS; hits only).

Excerpt of the above (series 4):
`CATGTAAG` has an E-score of 0.255.
For `CATGGAGG`, the E-score was 0.305.
`CATGCCTA` gave an E-score of 0.352.
With `TGCGCACA` the E-score was 0.346.
With `AGAACATG` the E-score was 0.291.
`CGTGTGAC` has an E-score of 0.354.
The E-score of `ACGTTGAC` is reported as 0.294.
